Results gathered from unrelated publications.
Each line is one published result; not all experiments were run side by side. ± gives the spread as reported.

For `CC[C@@](N)(c1cnc(C(F)(F)F)c(Cl)c1)c1c2ncn(C3CC3)c(=O)c2nn1C`, “volume of distribution at steady state” read 0.92 ± 0.0516 L/kg (Sprague-Dawley rat, male, plasma; intravenous, 1 mg/kg).
`CN1CC(Oc2cnc(C#N)cc2-c2ccn3nc(NC(=O)C4CC4)cc3c2)C1` — result for “volume of distribution”: 4 L/kg (rat, Sprague-Dawley, male, plasma; intravenous, 1 mg/kg).
Under “volume of distribution”, `N=C(N)NCCNC(=O)C1(Nc2ccccc2)CCN(Cc2ccccc2)CC1` is recorded as 0.6 ± 0.2 L (female Sprague-Dawley rats, plasma; intravenous, 2.5 mg/kg).
Under “volume of distribution”, `O=C1c2ccncc2C(=O)c2c1[nH]c1ccccc21` is recorded as 10.2 ± 4.3 L (Sprague-Dawley rat male, plasma; intravenous, 1 mg/kg).
For `Cc1cc(C#N)cc(C)c1Oc1nc(Nc2ccc(C#N)cc2)nc(N)c1Br`, “volume of distribution” read 8.85 ± 1.17 L/kg (Sprague-Dawley rat, plasma; intravenous, 2 mg/kg).
For `CCn1cc(C)c2c([C@H](O)c3ccc(C(F)(F)F)nc3)n(C)nc2c1=O`, “volume of distribution at steady state” read 2.9 ± 0.222 L/kg (Sprague-Dawley rat, male, plasma; intravenous, 1 mg/kg).
`O=C1C[C@@H](c2ccc(O)cc2)Oc2cc(O)cc(O)c21`: “volume of distribution” 1.01 ± 0.067 L (Sprague-Dawley rat, plasma; intravenous bolus, 1 mg/kg).
For `COc1cc2c3c(n(CCCN4CCOCC4)c(=O)c2cc1OC)-c1cc2c(cc1C3=O)OCO2`, “volume of distribution” read 156 L/m² (Fischer 344 rats, male; intravenous bolus, 12 mg/m^2).

Excerpt of the above:
For `CC[C@@](N)(c1cnc(C(F)(F)F)c(Cl)c1)c1c2ncn(C3CC3)c(=O)c2nn1C`, “volume of distribution at steady state” read 0.92 ± 0.0516 L/kg (Sprague-Dawley rat, male, plasma; intravenous, 1 mg/kg).
